{"data": "Results from different studies", "note": "Numbered parts are unrelated; each lists some results of a single study. Substitutions count along the parent as printed.", "sequence of UniProt P49427 (whole entry, looked up)": "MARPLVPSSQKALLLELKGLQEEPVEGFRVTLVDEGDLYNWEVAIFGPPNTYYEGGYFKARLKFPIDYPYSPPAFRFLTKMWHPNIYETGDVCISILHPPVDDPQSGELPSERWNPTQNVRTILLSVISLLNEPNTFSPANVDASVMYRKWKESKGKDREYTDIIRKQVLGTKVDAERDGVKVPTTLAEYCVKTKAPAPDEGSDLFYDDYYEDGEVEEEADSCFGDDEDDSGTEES", "sequence of UniProt P62256 (whole entry, looked up)": "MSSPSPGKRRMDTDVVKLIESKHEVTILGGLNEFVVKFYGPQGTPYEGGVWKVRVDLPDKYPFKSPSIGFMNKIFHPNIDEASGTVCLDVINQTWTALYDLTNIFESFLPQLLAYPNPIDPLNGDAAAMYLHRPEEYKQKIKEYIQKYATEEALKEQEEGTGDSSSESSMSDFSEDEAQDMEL", "sequence of UniProt P61077 (whole entry, looked up)": "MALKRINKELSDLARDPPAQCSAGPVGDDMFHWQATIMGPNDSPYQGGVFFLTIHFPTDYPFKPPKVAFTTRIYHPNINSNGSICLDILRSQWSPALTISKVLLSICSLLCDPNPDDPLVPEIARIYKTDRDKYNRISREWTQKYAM"}
{"data": "Sample 1", "Molecule": "B1 (RNF25 RING domain)", "technique": "yeast two-hybrid", "sample": "yeast", "notes": "mostly zero background", "relative to": "not given", "reading": "higher = stronger interaction", "B1": "RNF25 RING domain (UniProt Q96BH1); chain LTDNNIPHGQCVICLYGFQEKEAFTKTPCYHYFHCHCLARYIQHMEQELKAQGQEQEQERQHATTKQKAVGVQCPVCREPLVYDLASL"}
{"target": "UBE2H UBC core domain (UniProt P62256)", "lacZ reporter activity": 0}
{"target": "CDC34 UBC core domain (UniProt P49427)", "lacZ reporter activity": 0}
{"target": "UBE2D3 UBC core domain (UniProt P61077)", "lacZ reporter activity": 7720}
{"data": "Sample 2", "target": "PABPC1L2, full length, GST fusion (mouse, UniProt A0ABA7IW68)", "technique": "RNAcompete", "form": "RNA", "sample": "in vitro", "tested at": "20 nM", "notes": "7-mer, probes averaged, single round", "relative to": "mean of 7-mers", "reading": "higher = stronger binding", "Construct (chain)": "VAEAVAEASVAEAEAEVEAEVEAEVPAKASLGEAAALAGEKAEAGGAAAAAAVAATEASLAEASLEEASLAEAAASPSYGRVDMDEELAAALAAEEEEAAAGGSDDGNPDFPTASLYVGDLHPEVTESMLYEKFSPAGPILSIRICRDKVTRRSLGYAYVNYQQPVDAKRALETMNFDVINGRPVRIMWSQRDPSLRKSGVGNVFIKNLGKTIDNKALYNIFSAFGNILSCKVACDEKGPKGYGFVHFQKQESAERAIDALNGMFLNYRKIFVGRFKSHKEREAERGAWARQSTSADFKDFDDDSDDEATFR"}
{"Oligonucleotide": "GGGAGGU", "7-mer Z-score": 0.26}
{"Oligonucleotide": "UACCGCC", "7-mer Z-score": -0.335}
{"Oligonucleotide": "CUCUCAC", "7-mer Z-score": -0.431}
{"Oligonucleotide": "AGCGUAG", "7-mer Z-score": -0.0754}
{"Oligonucleotide": "GGGGCGG", "7-mer Z-score": 0.329}
{"Oligonucleotide": "UAGUCAG", "7-mer Z-score": -0.318}
{"Oligonucleotide": "CAAUAUA", "7-mer Z-score": 0.0932}
{"Oligonucleotide": "ACAGUAA", "7-mer Z-score": 0.195}
{"Oligonucleotide": "CUCACGC", "7-mer Z-score": -0.325}
{"Oligonucleotide": "UUAUAUC", "7-mer Z-score": -0.217}
{"Oligonucleotide": "GUCCGAC", "7-mer Z-score": -0.211}
{"Oligonucleotide": "CGGUUGC", "7-mer Z-score": -0.364}
{"Oligonucleotide": "CGGCCCA", "7-mer Z-score": -0.184}
{"Oligonucleotide": "CUCCUAU", "7-mer Z-score": -0.271}
{"Oligonucleotide": "CGCCGGA", "7-mer Z-score": -0.161}
{"Oligonucleotide": "AAUUUGU", "7-mer Z-score": -0.17}
{"Oligonucleotide": "UGUAUGU", "7-mer Z-score": -0.315}
{"Oligonucleotide": "UGCUAAU", "7-mer Z-score": -0.179}
{"data": "Sample 3", "target": "CCND1, cyclin fold, Cln2 fusion (human)", "technique": "yeast growth competition, sequencing", "sample": "yeast", "notes": "weak parent motif", "relative to": "not given", "reading": "higher = stronger binding", "parent": "RP1L1 docking peptide (human); TLGLGPLSFTLED"}
{"Substitution": "TLGLGPLSATLED [F9A]", "normalised enrichment score": 0.366}
{"Substitution": "TLGLGALSFTLED [P6A]", "normalised enrichment score": 0.588}
{"Substitution": "TLGLAPLSFTLED [G5A]", "normalised enrichment score": 0.715}
{"Substitution": "TLGLGPLSFALED [T10A]", "normalised enrichment score": 0.687}
{"Substitution": "ALGLGPLSFTLED [T1A]", "normalised enrichment score": 0.472}
{"Substitution": "TLGLGPLSFTAED [L11A]", "normalised enrichment score": 0.421}
{"data": "Sample 4", "target": "RNA binding protein fox-1 homolog 2, RRM domain, GST-SBP tag (RBFOX2, Homo sapiens, UniProt O43251-10, residues 100-194)", "technique": "RNA Bind-n-Seq", "form": "RNA", "sample": "in vitro", "tested at": "365 nM", "notes": "natural RNA segment, single round, ends assumed", "relative to": "no-protein control", "reading": "higher = stronger binding", "Construct (chain)": "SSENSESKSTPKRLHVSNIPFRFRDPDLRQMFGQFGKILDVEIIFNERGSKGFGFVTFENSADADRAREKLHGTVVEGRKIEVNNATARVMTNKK"}
{"Oligonucleotide": "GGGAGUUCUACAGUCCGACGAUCAGCCGAAAAUUAAACCCCACCUCCAUCAAACACAGUUUUUAUAGAUUCUGACUUUUUUAAAAAUUCUUUUCUAAUUAUUGUAAAAAGUAUAUUAUAUCUUAAGUCAGUUUUGGAAUUCUCGGGUGCCAA", "RBNS enrichment (R)": 0.92}
{"Oligonucleotide": "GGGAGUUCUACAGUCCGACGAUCAACAGAAUAUGCAUUAUUAAAGCAAAAAUAAAUAAAAGUAAAAUGCAAAUGAAAACAAGGGAGGGAAAGUUGUAUUAUUUCCUGCACUGGGUUACCCGUGUGUGUUAUCGUGGAAUUCUCGGGUGCCAA", "RBNS enrichment (R)": 0.556}
{"Oligonucleotide": "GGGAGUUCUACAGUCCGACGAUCAGUAGUGAGUGGACAGAUGGAAGAAGCACCGUGUCAUUUGCCAGAGUACAAAGACACGAUUACAUAACCAGGUUCAAGGGGGACUUCUGCUUAUCAGUGCUAGGGAUGGGUGGAAUUCUCGGGUGCCAA", "RBNS enrichment (R)": 0.712}
{"Oligonucleotide": "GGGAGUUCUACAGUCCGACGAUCCAGCGUGUGAUACAGAUACCACUGCUUUCAGGCUCUUGUCCUUUAAGUCCUGAUCAGCUGUCAGAUUGUUCUGAGAGUCUCAUCGCUGUCCUCGAGUGUCCAGUCUCAGGUGGAAUUCUCGGGUGCCAA", "RBNS enrichment (R)": 0.31}
{"Oligonucleotide": "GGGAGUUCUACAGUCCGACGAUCAGGCCUUACCUGUGGUGUGACAGAUUGAAUUGAUUGUUUACACUGGGGACUGUAUCUCGGAUCUUUAAAUAGAGGAAUCACAAACAGACUUAAGGACAGAUGCUGAGAUUUGGAAUUCUCGGGUGCCAA", "RBNS enrichment (R)": 0.914}
{"Oligonucleotide": "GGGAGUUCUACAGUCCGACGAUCGUCUUUAUUUUAGGCUGGAUUUCAGAUGUGUUGCUUCUGAAGACACAAUGAAAGAAUGCAAUCUUCCCACCAGCUACAUGACUACUUGUUCUCUGUGAAGUGUACUCUUGUGGAAUUCUCGGGUGCCAA", "RBNS enrichment (R)": 1.2}
{"Oligonucleotide": "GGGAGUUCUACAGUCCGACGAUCACUCGGCCGUCCCCCCUACCUCUGAGCUCUCAAUGCUGCUAAUCUCUGCCAAGUGUCCCUGUGCUCCAGCACCUUCCUUGAAGGACUGACGCCCACCCCACGCUCUUUGCUGGAAUUCUCGGGUGCCAA", "RBNS enrichment (R)": 0.423}
{"Oligonucleotide": "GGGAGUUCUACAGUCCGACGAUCUGUUUGUUUGUUUGUUUCCUUAAUCUGGCUCAUUUGAAAUUUCUUCUCCCUCUCAACCAUCCCACUAAGUUAUAGCCAAGAAGGGAAGGAGACACGGGGAUUUGGGGUUCUGGAAUUCUCGGGUGCCAA", "RBNS enrichment (R)": 0.762}
{"Oligonucleotide": "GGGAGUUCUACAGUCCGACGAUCUAAUAAUGAUGUGAAACAUAAAGAUUUAAUAAUUACUGUCCAACACAGUGGAGCAGCUUGUCCACAAAUAUAGUAAUUACUAUUUAUUGCUCUAAGGAAGAUUAAAAAAAUGGAAUUCUCGGGUGCCAA", "RBNS enrichment (R)": 0.743}
{"Oligonucleotide": "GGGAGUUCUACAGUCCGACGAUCUGUGAACUUUUUCUAGGUGGCAGGACAAAUUGCGCCCAUUUAGAGGAUGUGGCUGUAACCUGCUGGAUGGGACUCCAUAGCUCCUUCCCAGGACCCCUCAGCUCCCCGGCUGGAAUUCUCGGGUGCCAA", "RBNS enrichment (R)": 0.175}
{"Oligonucleotide": "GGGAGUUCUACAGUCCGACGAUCCUCAAUUAUUAAAUAAAAGAAUAUUUCUUAUUUCUGGGUCAAUAUAAGGUACUGACUUCUGAUGCAUAAUCACUUAAGCUAUGUGAGUUUAAACUGGUAUCUUUUCUUAGUGGAAUUCUCGGGUGCCAA", "RBNS enrichment (R)": 0.626}
{"Oligonucleotide": "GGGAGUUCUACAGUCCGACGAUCCAUGGUGCUCAAUAUCUUGGCCAAAUAAGUUACUUCCCUUGAAUAUCCAGGAAUUUUAAACUAAAGCAAUGAGUUGUCUGUCACCUUGCCCUGGAACUCCAGCGUAACCUUGGAAUUCUCGGGUGCCAA", "RBNS enrichment (R)": 0.623}
{"data": "Sample 5", "target": "ABI1, truncated, D143A, DHFR fusion (Arabidopsis thaliana)", "technique": "DHFR PCA, deep sequencing", "sample": "yeast", "notes": "methotrexate growth selection, single substitutions", "with": "(+)-ABA 0.11 µM", "relative to": "wild-type fitted maximum", "reading": "higher = stronger binding", "parent": "PYL1, truncated, DHFR fusion (Arabidopsis thaliana); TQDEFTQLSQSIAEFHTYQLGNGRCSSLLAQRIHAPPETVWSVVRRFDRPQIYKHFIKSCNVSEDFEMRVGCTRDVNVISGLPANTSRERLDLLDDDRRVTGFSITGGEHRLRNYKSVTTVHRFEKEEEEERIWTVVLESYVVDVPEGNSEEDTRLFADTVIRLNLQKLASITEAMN"}
{"Substitution": "R90I", "relative binding score": "-2.39%"}
{"Substitution": "E14C", "relative binding score": "0.0368%"}
{"Substitution": "R49E", "relative binding score": "14.7%"}
{"Substitution": "M68K", "relative binding score": "-6.51%"}
{"Substitution": "I57S", "relative binding score": "4.32%"}
{"Substitution": "E131S", "relative binding score": "48.4%"}
{"Substitution": "F5A", "relative binding score": "11.9%"}
{"Substitution": "I79M", "relative binding score": "10.5%"}
{"Substitution": "W41C", "relative binding score": "0.484%"}
{"Substitution": "T101V", "relative binding score": "37.3%"}
{"Substitution": "N77Q", "relative binding score": "65.1%"}
{"Substitution": "D144G", "relative binding score": "3.49%"}
{"Substitution": "N22G", "relative binding score": "26.5%"}
{"Substitution": "D92E", "relative binding score": "14.3%"}
{"data": "Sample 6", "target": "XBP1, bZIP domain (human)", "technique": "DHFR protein complementation", "sample": "yeast", "notes": "single substitutions, most at no-binding floor", "relative to": "wild-type JUN-FOS pair", "reading": "higher = stronger binding", "parent": "JUN, bZIP domain (human); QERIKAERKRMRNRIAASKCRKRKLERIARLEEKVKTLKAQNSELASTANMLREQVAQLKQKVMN; partner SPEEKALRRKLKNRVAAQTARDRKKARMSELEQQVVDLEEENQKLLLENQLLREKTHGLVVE"}
{"Substitution": "A46Y", "binding fitness [natural log]": -1.3}
{"Substitution": "A57T", "binding fitness [natural log]": -1.1}
{"Substitution": "L38E", "binding fitness [natural log]": -1.42}
{"Substitution": "A57C", "binding fitness [natural log]": -1.22}
{"Substitution": "A49E", "binding fitness [natural log]": -1.42}
{"Substitution": "S43I", "binding fitness [natural log]": -0.683}
{"Substitution": "L45T", "binding fitness [natural log]": -1.46}
{"Substitution": "E44H", "binding fitness [natural log]": -0.911}
{"Substitution": "L52G", "binding fitness [natural log]": -1.5}
{"Substitution": "K34W", "binding fitness [natural log]": -1.34}
{"Substitution": "I28H", "binding fitness [natural log]": -1.38}
{"Substitution": "S47D", "binding fitness [natural log]": -0.644}
